# Measurements of several laboratories.
# A part holds a random share of what one study measured. “And” joins repeats or separate records; there may be more than shown.
# Sequence of UniProt Q08345 (whole entry, looked up): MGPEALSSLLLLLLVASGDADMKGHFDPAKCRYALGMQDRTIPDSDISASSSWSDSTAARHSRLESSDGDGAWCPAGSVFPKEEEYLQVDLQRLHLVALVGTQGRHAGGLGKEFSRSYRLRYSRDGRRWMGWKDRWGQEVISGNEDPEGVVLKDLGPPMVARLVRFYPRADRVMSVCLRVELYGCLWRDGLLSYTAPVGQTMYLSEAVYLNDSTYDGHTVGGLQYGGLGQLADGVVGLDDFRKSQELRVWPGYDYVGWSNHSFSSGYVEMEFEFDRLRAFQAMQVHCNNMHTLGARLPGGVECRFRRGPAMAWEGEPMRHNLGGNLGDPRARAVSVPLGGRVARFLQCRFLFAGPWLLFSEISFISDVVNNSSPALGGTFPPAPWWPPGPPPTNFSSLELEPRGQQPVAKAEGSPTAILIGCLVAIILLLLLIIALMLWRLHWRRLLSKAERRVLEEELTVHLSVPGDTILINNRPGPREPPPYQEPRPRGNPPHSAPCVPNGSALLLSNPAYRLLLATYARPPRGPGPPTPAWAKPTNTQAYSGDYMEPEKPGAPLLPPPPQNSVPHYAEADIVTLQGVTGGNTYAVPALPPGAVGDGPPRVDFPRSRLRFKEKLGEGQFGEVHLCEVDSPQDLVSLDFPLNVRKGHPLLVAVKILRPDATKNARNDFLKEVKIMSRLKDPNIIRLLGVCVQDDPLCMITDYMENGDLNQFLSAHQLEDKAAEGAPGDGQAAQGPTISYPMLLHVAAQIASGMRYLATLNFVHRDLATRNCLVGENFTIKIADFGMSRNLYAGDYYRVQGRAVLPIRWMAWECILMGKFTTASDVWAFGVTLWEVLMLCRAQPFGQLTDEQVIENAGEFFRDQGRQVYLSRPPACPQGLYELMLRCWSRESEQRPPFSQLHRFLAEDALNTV
# Sequence of UniProt P07948 (whole entry, looked up): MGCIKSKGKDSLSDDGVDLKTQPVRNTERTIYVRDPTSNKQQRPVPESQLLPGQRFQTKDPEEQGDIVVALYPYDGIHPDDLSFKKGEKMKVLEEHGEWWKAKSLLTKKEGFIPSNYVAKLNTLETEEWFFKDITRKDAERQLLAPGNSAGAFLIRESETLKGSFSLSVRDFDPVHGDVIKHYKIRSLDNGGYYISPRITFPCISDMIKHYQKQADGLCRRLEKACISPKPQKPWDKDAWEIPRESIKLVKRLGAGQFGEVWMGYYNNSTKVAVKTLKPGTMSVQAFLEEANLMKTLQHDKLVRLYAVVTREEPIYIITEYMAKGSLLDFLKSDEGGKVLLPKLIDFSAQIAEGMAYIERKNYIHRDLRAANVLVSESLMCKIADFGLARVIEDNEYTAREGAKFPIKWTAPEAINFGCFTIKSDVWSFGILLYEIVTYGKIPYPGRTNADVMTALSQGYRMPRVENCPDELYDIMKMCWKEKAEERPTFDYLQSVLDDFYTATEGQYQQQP
# Sequence of UniProt Q16832 (whole entry, looked up): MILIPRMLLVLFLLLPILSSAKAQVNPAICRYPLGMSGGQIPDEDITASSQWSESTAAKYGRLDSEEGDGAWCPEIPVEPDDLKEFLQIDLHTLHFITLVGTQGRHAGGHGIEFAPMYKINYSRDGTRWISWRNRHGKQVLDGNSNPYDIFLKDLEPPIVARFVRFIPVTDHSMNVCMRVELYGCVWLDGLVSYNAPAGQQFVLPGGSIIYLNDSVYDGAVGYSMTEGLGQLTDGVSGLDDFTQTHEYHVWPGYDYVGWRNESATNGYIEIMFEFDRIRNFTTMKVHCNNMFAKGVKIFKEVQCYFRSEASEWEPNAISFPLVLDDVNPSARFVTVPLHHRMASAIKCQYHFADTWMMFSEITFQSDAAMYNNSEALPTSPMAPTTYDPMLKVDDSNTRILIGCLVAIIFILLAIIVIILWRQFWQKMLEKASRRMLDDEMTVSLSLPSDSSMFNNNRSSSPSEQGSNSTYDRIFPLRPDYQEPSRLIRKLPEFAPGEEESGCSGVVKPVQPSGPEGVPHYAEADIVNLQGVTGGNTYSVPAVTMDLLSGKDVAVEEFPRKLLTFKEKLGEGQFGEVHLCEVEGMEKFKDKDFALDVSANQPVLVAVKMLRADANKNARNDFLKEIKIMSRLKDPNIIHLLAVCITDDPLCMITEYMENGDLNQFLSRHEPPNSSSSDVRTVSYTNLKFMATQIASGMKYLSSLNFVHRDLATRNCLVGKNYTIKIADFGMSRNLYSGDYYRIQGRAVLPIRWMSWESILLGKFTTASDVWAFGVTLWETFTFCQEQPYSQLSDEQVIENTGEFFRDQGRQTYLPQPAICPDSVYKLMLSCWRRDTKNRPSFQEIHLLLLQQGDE
# Sequence of UniProt Q02763 (whole entry, looked up): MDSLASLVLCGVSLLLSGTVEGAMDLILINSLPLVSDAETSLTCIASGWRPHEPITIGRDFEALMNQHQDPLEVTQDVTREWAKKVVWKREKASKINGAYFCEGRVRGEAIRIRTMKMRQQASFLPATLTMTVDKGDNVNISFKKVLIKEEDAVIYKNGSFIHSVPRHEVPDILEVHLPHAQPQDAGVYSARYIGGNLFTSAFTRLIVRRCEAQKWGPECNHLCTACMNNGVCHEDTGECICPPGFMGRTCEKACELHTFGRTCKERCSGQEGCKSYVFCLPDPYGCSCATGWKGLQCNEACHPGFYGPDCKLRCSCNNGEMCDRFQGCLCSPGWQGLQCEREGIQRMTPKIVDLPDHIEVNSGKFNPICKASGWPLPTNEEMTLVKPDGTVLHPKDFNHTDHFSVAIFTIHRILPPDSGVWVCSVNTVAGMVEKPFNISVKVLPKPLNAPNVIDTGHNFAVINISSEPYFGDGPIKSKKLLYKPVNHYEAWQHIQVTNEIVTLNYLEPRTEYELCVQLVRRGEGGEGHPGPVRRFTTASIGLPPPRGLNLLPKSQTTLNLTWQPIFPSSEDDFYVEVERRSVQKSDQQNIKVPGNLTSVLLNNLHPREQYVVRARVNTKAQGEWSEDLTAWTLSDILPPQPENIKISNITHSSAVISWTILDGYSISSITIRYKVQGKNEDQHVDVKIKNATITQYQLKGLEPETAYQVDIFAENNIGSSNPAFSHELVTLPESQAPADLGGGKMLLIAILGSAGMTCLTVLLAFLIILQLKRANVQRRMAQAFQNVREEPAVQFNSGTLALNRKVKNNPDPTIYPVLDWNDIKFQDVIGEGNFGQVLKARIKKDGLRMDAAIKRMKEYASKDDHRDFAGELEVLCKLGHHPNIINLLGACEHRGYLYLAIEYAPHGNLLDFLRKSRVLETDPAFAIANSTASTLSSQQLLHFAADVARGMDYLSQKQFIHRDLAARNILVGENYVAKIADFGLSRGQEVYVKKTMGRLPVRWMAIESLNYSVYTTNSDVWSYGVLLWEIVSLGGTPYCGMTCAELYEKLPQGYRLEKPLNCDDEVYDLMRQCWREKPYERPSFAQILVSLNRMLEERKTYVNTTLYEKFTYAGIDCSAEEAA
# Sequence of UniProt O15197 (whole entry, looked up): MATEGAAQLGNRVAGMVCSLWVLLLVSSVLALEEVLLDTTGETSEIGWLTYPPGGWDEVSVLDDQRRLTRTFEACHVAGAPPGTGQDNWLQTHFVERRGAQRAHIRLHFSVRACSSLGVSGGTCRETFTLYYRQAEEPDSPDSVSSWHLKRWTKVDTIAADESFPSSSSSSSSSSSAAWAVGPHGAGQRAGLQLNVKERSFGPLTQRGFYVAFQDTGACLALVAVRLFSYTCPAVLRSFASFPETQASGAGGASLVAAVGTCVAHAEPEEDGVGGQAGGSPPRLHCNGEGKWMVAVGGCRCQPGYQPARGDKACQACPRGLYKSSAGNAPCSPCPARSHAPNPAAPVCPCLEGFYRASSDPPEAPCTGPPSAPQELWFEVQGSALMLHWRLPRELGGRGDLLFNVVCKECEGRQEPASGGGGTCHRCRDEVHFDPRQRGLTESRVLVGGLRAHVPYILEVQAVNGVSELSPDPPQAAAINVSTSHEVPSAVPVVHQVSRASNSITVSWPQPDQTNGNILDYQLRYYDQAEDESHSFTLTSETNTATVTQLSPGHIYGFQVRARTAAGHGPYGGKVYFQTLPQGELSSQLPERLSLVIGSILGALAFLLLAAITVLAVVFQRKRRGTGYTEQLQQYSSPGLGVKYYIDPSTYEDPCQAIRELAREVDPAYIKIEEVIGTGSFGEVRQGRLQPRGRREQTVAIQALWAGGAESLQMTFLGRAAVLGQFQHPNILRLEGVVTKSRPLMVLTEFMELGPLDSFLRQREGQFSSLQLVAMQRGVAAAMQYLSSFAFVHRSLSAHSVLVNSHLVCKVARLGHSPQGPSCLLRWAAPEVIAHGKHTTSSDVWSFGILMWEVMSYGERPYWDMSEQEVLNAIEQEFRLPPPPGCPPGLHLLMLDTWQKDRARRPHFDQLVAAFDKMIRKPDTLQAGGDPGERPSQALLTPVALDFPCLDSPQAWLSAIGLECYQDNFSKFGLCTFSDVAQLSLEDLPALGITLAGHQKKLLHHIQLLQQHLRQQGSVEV
# Sequence of UniProt P41743 (whole entry, looked up): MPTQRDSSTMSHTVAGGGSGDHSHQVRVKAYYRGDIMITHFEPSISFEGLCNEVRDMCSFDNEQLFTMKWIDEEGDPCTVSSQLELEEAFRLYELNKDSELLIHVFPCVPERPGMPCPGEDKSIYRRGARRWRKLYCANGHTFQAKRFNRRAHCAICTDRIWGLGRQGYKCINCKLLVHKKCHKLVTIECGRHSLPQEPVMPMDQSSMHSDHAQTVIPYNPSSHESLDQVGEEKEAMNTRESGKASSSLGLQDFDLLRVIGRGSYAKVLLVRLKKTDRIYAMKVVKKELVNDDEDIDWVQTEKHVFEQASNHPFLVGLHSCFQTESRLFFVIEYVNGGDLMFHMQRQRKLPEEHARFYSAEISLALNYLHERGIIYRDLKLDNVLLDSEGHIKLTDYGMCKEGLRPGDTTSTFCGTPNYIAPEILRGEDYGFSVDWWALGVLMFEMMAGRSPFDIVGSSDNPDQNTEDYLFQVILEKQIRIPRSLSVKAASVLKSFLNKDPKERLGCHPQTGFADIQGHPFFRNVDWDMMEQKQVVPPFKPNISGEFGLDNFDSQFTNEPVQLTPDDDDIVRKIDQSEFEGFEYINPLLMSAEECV

# Set 1
# Target: Lymphokine-activated killer T-cell-originated protein kinase (PBK, Homo sapiens, UniProt Q96KB5)
# Observed: enzyme activity
# Action: inhibitor
# Tested at: 0.5 µM
# Reference: control
# Construct (Q96KB5 1-322): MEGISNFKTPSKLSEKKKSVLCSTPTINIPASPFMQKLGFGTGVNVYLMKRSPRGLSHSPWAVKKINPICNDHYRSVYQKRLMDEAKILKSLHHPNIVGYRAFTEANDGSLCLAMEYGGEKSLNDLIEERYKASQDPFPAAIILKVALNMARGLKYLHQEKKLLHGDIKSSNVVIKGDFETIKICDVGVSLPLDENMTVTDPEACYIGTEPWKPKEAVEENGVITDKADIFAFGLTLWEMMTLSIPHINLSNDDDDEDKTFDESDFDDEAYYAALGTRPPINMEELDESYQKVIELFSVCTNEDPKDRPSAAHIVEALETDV
Compound,remaining activity [%]
CCN(CC)C(=O)c1ccc(Nc2nc(OCC3CCCCC3)c3[nH]cnc3n2)cc1,116
O=c1cc(-c2cccc3c2Sc2ccccc2S3)oc(N2CCOCC2)c1,99.4
Nc1cccc(-c2cc3c(Oc4cccc(O)c4)ncnc3[nH]2)c1,93.9
C[C@@H]1CCN(C(=O)CC#N)C[C@@H]1N(C)c1ncnc2[nH]ccc12,102
CN(C)C[C@H]1CCn2c(c(C3=C(c4cn(C)c5ccccc45)C(=O)NC3=O)c3ccccc32)C1,101
CN([C@@H](Cc1ccc(OS(=O)(=O)c2cccc3cnccc23)cc1)C(=O)N1CCN(c2ccccc2)CC1)S(=O)(=O)c1cccc2cnccc12,99.2
N#Cc1c(NC(=O)c2cccc3ccccc23)sc2c1CCCC2,116
Cn1nc2c3c(cccc31)C(=O)c1ccccc1-2,108
c1ccc(-c2[nH]ncc2-c2ccnc3ccccc23)nc1,91.9
CCN(CC)CCNC(=O)c1c(C)[nH]c(/C=C2\C(=O)Nc3ccc(F)cc32)c1C,106
COc1cc2c(cc1OC)-c1[nH]nc(Nc3cccc(F)c3)c1C2,86.8
Cc1cc2ncc(-c3ccccc3)nc2cc1C,94.5
COc1cc2ncnc(Nc3ccc(O)c(Br)c3)c2cc1OC,101
CCN(CC)CCNC(=O)c1c(C)[nH]c(/C=C2\C(=O)Nc3ccc(Cl)cc32)c1C,104
COc1cc2ncnc(Nc3cccc(Cl)c3)c2cc1OC,70.9
Ic1cccc(CSc2nnc(-c3ccncc3)o2)c1,62.7
Cc1nc2cc3nc(-c4cccs4)cnc3cc2n1C,98.9
c1ccc(-c2cnc(Nc3ccc(OCCN4CCCC4)cc3)s2)cc1,108
O=C1C(Cl)=C(N2C(=O)CCC2=O)C(=O)c2ccccc21,106
O=C1c2ccccc2-c2n[nH]c3cccc1c23,89.1
O=C(Nc1cccc(Nc2nccc(Nc3cccc(C(F)(F)F)c3)n2)c1)C1CC1,101
O=C(NC(NC(=S)Nc1ccc(F)c([N+](=O)[O-])c1)C(Cl)(Cl)Cl)C(c1ccccc1)c1ccccc1 (stereo not shown),116
Cc1cn(-c2cc(NC(=O)c3ccc(C)c(Nc4nccc(-c5cccnc5)n4)c3)cc(C(F)(F)F)c2)cn1,103
N#C/C(=C\c1ccc(O)c(O)c1)C(=O)NCc1ccccc1,84.2
CCOc1nc(NC(=O)Cc2cc(OC)ccc2OC)cc(N)c1C#N,116

# Set 2
# Cell line: mouse MPNST tumor cells
# Method: high-content nuclear imaging
# Measured: cell number
# Tested at: 10 µM
# Time: 12 h
# Notes: mean of 2 replicates
# Reference: plate mean
# Direction: higher = more cells
SMILES,nuclei count
NC1(C(=O)N[C@@H](CCO)c2ccc(Cl)cc2)CCN(c2ncnc3[nH]ccc23)CC1,1.32 z-score
COc1ccc2cc([C@H](C)C(=O)O)ccc2c1,-0.0127 z-score
Clc1cccc(Cl)c1CSc1nnc(-c2ccc[nH]2)o1,2.36 z-score
C=C1C(=O)O[C@@H](CCCCCCCC)[C@@H]1C(=O)O.C=C1C(=O)O[C@H](CCCCCCCC)[C@H]1C(=O)O,0.781 z-score
CCCOc1ccccc1-c1nc2[nH]nnc2c(=O)[nH]1,0.353 z-score and -0.166 z-score
O=C1[C@H](CC[C@H](O)c2ccc(F)cc2)[C@@H](c2ccc(O)cc2)N1c1ccc(F)cc1,3.71 z-score and 3.66 z-score
CN(C)C/C=C/C(=O)Nc1cc2c(Nc3ccc(F)c(Cl)c3)ncnc2cc1O[C@H]1CCOC1,-5.25 z-score
N#C[C@@H]1C[C@@H]2C[C@@H]2N1C(=O)[C@@H](N)C12CC3CC(CC(O)(C3)C1)C2,2.08 z-score and 0.928 z-score
NS(=O)(=O)c1cccc2c1c([N+](=O)[O-])cc1nc(O)c(O)nc12,-0.481 z-score

# Set 3
# Cell line: Huh-7
# Tested at: 10 µM
# Time: 24 h
SMILES,viability
C[N+](C)(C)C[C@H](O)CC(=O)[O-],100%
C[N+](C)(C)CCOP(=O)(O)OP(=O)([O-])OC[C@H]1O[C@@H](n2ccc(N)nc2=O)[C@H](O)[C@@H]1O,55.6%
O=C(O)CN1C(=O)c2cccc3cccc(c23)C1=O,98.9%
C[C@H]1c2cccc(O)c2C(=O)C2=C(O)[C@]3(O)C(=O)C(C(N)=O)=C(O)[C@@H](N(C)C)[C@@H]3[C@@H](O)[C@@H]21,91.3%
O=C1CCc2cc(OCCCCc3nnnn3C3CCCCC3)ccc2N1,94.8%
CC[C@H]1OC(=O)[C@H](C)[C@@H](O[C@H]2C[C@@](C)(OC)[C@@H](O)[C@H](C)O2)[C@H](C)[C@@H](O[C@@H]2O[C@H](C)C[C@H](N(C)C)[C@H]2O)[C@](C)(O)C[C@@H](C)C(=O)[C@H](C)[C@@H](O)[C@]1(C)O,99.2%
OCc1ccccc1O[C@@H]1O[C@H](CO)[C@@H](O)[C@H](O)[C@H]1O,102%
CC(=O)O[C@]1(C(C)=O)CC[C@H]2[C@@H]3C=C(Cl)C4=CC(=O)[C@@H]5C[C@@H]5[C@]4(C)[C@H]3CC[C@@]21C,97.5%
CCN(CCCCOC(=O)c1ccc(OC)c(OC)c1)C(C)Cc1ccc(OC)cc1 (stereo not shown),98.3%
N=C(N)N/N=C/c1c(Cl)cccc1Cl,94.9%

# Set 4
# SMILES: Cc1cc(C)c(-n2ccn3nc(-c4cccnc4)cc23)cc1NC(=O)c1cc(C#N)cc(S(F)(F)(F)(F)F)c1
# Observed: target engagement
# Method: NanoBRET
# Matrix: live cells
target,EC50
"Angiopoietin-1 receptor (TEK, Homo sapiens, UniProt Q02763)",1.72 nM and 1.18 nM and 2.14 nM
"Discoidin domain-containing receptor 2 (DDR2, Homo sapiens, UniProt Q16832)",0.519 nM and 0.651 nM and 0.456 nM
"Epithelial discoidin domain-containing receptor 1 (DDR1, Homo sapiens, UniProt Q08345)",1.36 nM and 2.05 nM and 1.18 nM
"Tyrosine-protein kinase Lyn (LYN, Homo sapiens, UniProt P07948)",7310 nM and 6550 nM and 8460 nM
"Ephrin type-B receptor 6 (EPHB6, Homo sapiens, UniProt O15197)",9410 nM and 13500 nM

# Set 5
# Structure (SMILES): O=C(Nc1ccccc1)Nc1cccc(Oc2ccc3nccn3n2)c1
# Tested at: 1 µM
target,assay,setting,scale,remaining binding
"Serine/threonine-protein kinase ULK3 (ULK3, Homo sapiens, UniProt Q6PHR2)",competitive binding panel,,reference: vehicle,100%
"Serine/threonine-protein kinase MARK2 (MARK2, Homo sapiens, UniProt Q7KZI7)",competitive binding panel,,reference: vehicle,61%
"Tyrosine-protein kinase Fgr (FGR, Homo sapiens, UniProt P09769)",competitive binding panel,,reference: vehicle,82%
"Tyrosine-protein kinase ABL1 (ABL1, Homo sapiens, UniProt P00519, T315I)",competitive binding panel,,reference: vehicle,93%
"Cyclin-dependent kinase 11A (CDK11A, Homo sapiens, UniProt Q9UQ88)","competitive binding panel, measured: CDC2L2",,reference: vehicle,95%
"MAP/microtubule affinity-regulating kinase 4 (MARK4, Homo sapiens, UniProt Q96L34)",competitive binding panel,,reference: vehicle,91%
"Serine/threonine-protein kinase PLK2 (PLK2, Homo sapiens, UniProt Q9NYY3)",competitive binding panel,,reference: vehicle,100%
"Serine/threonine-protein kinase D2 (PRKD2, Homo sapiens, UniProt Q9BZL6)",competitive binding panel,,reference: vehicle,93%
"Casein kinase II subunit alpha (CSNK2A1, Homo sapiens, UniProt P68400)",competitive binding panel,,reference: vehicle,100%
"Serine/threonine-protein kinase WNK2 (WNK2, Homo sapiens, UniProt Q9Y3S1)",competitive binding panel,,reference: vehicle,100%
"Rho-associated protein kinase 2 (ROCK2, Homo sapiens, UniProt O75116)",competitive binding panel,,reference: vehicle,100%
"Protein kinase C iota type (PRKCI, Homo sapiens, UniProt P41743)",competitive binding panel,,reference: vehicle,79%
"cAMP-dependent protein kinase catalytic subunit alpha (PRKACA, Homo sapiens, UniProt P17612)",competitive binding,PKAC-alpha,,52%
"Tyrosine-protein kinase JAK1 (JAK1, Homo sapiens, UniProt P23458)",competitive binding panel,JH1 catalytic domain,reference: vehicle,84%
"Interleukin-1 receptor-associated kinase 3 (IRAK3, Homo sapiens, UniProt Q9Y616)",competitive binding panel,,reference: vehicle,99%

# A few entries again (set 1):
Compound,remaining activity [%]
CCN(CC)C(=O)c1ccc(Nc2nc(OCC3CCCCC3)c3[nH]cnc3n2)cc1,116
O=C(NC(NC(=S)Nc1ccc(F)c([N+](=O)[O-])c1)C(Cl)(Cl)Cl)C(c1ccccc1)c1ccccc1 (stereo not shown),116
O=C1C(Cl)=C(N2C(=O)CCC2=O)C(=O)c2ccccc21,106
Cc1nc2cc3nc(-c4cccs4)cnc3cc2n1C,98.9
CCN(CC)CCNC(=O)c1c(C)[nH]c(/C=C2\C(=O)Nc3ccc(Cl)cc32)c1C,104
N#Cc1c(NC(=O)c2cccc3ccccc23)sc2c1CCCC2,116
Cn1nc2c3c(cccc31)C(=O)c1ccccc1-2,108
COc1cc2ncnc(Nc3ccc(O)c(Br)c3)c2cc1OC,101
c1ccc(-c2[nH]ncc2-c2ccnc3ccccc23)nc1,91.9
Cc1cn(-c2cc(NC(=O)c3ccc(C)c(Nc4nccc(-c5cccnc5)n4)c3)cc(C(F)(F)F)c2)cn1,103
